Assay results collected from several papers.
Each numbered part is a random draw from the data of one study; scales do not carry over between parts.

Study 1
Target: Ras GTPase-activating protein-binding protein 1, full length (G3BP1, Homo sapiens, UniProt Q13283)
Chain of UniProt Q13283 (whole entry, looked up): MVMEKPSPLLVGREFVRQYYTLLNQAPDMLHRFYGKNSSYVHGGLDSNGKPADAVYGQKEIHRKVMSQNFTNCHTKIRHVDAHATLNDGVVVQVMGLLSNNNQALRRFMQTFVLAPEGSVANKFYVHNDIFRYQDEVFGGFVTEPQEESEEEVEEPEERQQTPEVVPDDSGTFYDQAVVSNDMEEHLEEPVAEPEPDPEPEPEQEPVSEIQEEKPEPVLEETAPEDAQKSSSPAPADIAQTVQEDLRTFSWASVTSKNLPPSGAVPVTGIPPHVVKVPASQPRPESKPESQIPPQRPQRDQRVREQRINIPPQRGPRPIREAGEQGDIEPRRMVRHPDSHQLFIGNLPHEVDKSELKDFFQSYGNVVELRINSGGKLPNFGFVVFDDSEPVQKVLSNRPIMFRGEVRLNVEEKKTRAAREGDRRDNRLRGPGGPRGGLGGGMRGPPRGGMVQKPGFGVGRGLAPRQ
Technique: RNA Bind-n-Seq
Molecule type: RNA
Matrix: in vitro
Concentration: 200 nM
Notes: whole 134-nt RNA, ends assumed
With: 150 mM LiCl
Reference: input library
Reading: higher = stronger binding
Endpoint: log2 enrichment
Each molecule: 7-deaza-guanosine replaces G
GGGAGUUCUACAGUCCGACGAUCGUCCUGUGCUACACAUCGUAUGUACCGAAUCGGGGUUUGGGGAAAAAGGGGUUUGGGGAAAGUAUUAUGUUACGCCGUUCGGAUCUGCACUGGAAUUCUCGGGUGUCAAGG: -0.722
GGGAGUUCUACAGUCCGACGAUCCAAGUCCUGUGCUACACAUCGUAUGUACCGAAUCGGGUGGGUUUUUUUGGGUGGGAAAGUAUUAUGUUACGCCGUUCGGAUCUGCACUUCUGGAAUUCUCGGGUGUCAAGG: 0.567
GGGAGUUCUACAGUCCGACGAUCUCCUCAAGUCCUGUGCUACACAUCGUAUGUACCGAAUCGGGUGGUGGUGGGGAAAGUAUUAUGUUACGCCGUUCGGAUCUGCACUUCCAGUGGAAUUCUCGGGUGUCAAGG: 0.426
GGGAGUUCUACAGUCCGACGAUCCAAGUCCUGUGCUACACAUCGUAUGUACCGAAUCGGGCCCGGCCCGGGGCCCGGGAAAGUAUUAUGUUACGCCGUUCGGAUCUGCACUUCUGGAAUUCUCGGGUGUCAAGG: -1.58
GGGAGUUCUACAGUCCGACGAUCUGGCCCUGGUGGCAUGCGGGGAGCAAGAGGUGGCCUCAUGGAUCGUGGUGGUCCCGGUGGAAUGUUCAGAGGUGGCCGUGGUGGAGACAGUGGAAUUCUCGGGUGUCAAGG: 0.47
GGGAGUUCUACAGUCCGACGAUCCAAGUCCUGUGCUACACAUCGUAUGUACCGAAUCGGGAAAAAAAGGGAGGGUGGGAAAGUAUUAUGUUACGCCGUUCGGAUCUGCACUUCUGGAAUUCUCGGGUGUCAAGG: -0.0642
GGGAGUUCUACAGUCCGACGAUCAGUCCUGUGCUACACAUCGUAUGUACCGAAUCAAACCCCCCCAAAUUUAAACCCAAAAAAGUAUUAUGUUACGCCGUUCGGAUCUGCACUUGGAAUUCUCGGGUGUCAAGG: 1.45

Study 2
Target: Sal-like protein 4, full length isoform A (SALL4, Homo sapiens, UniProt Q9UJQ4, residues 1-1053)
Chain of UniProt Q9UJQ4 (whole entry, looked up): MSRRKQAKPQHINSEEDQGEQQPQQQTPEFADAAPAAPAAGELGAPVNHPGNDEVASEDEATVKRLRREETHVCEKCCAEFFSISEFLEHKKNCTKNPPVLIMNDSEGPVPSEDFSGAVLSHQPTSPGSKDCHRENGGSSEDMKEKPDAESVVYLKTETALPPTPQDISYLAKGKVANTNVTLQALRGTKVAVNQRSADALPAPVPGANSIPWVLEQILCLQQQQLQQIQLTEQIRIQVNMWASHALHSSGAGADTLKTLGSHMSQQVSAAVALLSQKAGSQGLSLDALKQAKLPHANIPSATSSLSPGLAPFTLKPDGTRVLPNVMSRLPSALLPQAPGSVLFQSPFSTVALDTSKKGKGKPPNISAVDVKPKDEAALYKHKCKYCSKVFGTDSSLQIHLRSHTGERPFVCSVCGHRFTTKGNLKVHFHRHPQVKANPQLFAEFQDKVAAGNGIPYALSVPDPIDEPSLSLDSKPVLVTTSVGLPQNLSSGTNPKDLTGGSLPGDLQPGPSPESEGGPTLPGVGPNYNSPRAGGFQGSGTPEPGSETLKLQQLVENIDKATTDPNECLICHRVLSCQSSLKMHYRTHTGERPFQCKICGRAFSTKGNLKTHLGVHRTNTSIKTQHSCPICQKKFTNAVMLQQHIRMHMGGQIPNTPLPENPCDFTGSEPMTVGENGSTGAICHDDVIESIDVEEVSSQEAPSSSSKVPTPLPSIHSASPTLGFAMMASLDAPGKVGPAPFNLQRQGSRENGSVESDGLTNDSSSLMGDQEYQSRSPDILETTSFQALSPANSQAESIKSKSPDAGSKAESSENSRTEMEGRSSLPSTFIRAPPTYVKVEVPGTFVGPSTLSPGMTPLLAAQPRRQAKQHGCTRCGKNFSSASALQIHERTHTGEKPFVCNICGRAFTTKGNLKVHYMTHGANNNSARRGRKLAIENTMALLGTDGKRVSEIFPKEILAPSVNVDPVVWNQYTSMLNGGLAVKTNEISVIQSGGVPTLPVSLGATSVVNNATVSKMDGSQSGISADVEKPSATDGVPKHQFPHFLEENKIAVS
Technique: universal PBM
Molecule type: double-stranded DNA, one strand shown
Matrix: in vitro
Concentration: 600 nM
Notes: 8-mer, flanks averaged, mean of replicates
Reading: higher = stronger binding
Endpoint: E-score
CATCTTTA: 0.167
AGCCAAAC: -0.0798
AGCACAAT: 0.0809
ACCCTCGC: -0.215
CTTATGGC: 0.129
TAAACATA: 0.351
AGTCGATC: -0.209
AATGAGAG: 0.123

Study 3
Target: Centromere-binding protein 1, full length, N-terminal tag (CBF1, Saccharomyces cerevisiae, UniProt P17106, residues 1-351)
Chain of UniProt P17106 (whole entry, looked up): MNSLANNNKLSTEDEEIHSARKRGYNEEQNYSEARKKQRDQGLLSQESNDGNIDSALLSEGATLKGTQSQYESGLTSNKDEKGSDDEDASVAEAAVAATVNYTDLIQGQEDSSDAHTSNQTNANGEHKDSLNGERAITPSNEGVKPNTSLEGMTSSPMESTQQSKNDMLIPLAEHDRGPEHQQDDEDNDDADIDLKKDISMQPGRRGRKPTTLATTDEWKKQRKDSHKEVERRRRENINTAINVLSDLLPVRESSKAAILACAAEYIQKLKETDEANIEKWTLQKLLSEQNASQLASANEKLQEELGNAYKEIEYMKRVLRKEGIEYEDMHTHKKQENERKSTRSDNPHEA
Technique: protein-binding microarray
Molecule type: double-stranded DNA, one strand shown
Matrix: in vitro
Concentration: 0.8 µM
Notes: whole 60-bp probe, no competitor
Reading: higher = stronger binding
Endpoint: fluorescence intensity
CTATAATATGGTCATCTGACCATGGTGACATAATTCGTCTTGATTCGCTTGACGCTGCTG: 6980 a.u.
CTAAGTGCGTGACATCAGTATGCGCTTTGGATGTTCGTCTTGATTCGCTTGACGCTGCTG: 724 a.u.
GAATGTGCTAGTGGTGGCGTGATGCAAGAAGCTTAGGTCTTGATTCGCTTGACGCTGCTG: 1290 a.u.
GAAGGTAAATATGGTAACGTGCGACAATAAACATAGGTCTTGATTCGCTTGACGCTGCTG: 1440 a.u.
CTATGTTTTGCCCATCAGCTCAACTGTTTTAGGTTCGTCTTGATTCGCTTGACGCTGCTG: 527 a.u.
CTAACTGTTATCCTCCACGTTTTTTCCACTGTTTTCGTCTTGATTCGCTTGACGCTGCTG: 604 a.u.

Mixed results
PhoQ, residues 284 288 289 292 302 303 AAQSYM — fold induction (PhoP, residues 12 14 15 18 19 MHTVL (Escherichia coli, UniProt P23836); Sort-seq, item: YFP reporter; E. coli; PhoQ-PhoP variant library, with: 10 µM Mg2+; reference: high Mg2+ state, higher = stronger signaling): 16.6

Excerpt of the above (study 3):
GAAGGTAAATATGGTAACGTGCGACAATAAACATAGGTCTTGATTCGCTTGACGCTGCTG: 1440 a.u.
CTATGTTTTGCCCATCAGCTCAACTGTTTTAGGTTCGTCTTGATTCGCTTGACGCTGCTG: 527 a.u.
CTATAATATGGTCATCTGACCATGGTGACATAATTCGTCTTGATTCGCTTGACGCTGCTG: 6980 a.u.
GAATGTGCTAGTGGTGGCGTGATGCAAGAAGCTTAGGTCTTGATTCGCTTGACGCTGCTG: 1290 a.u.
